# Published values from different studies.
# Numbered parts are unrelated; each lists some results of a single study. Substitutions count along the parent as printed.

# Series 1
# Target: ABI1, truncated, D143A, DHFR fusion (Arabidopsis thaliana)
# Method: DHFR PCA, deep sequencing
# Matrix: yeast
# Notes: methotrexate growth selection, single substitutions
# Together with: (+)-ABA 0.0091 µM
# Reference: wild-type fitted maximum
# Direction: higher = stronger binding
# Parent: PYL1, truncated, DHFR fusion (Arabidopsis thaliana); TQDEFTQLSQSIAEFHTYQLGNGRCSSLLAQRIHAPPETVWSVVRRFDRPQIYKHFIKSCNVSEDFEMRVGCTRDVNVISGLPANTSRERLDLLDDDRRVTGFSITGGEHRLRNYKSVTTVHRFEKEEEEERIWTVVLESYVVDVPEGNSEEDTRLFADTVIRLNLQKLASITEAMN; partner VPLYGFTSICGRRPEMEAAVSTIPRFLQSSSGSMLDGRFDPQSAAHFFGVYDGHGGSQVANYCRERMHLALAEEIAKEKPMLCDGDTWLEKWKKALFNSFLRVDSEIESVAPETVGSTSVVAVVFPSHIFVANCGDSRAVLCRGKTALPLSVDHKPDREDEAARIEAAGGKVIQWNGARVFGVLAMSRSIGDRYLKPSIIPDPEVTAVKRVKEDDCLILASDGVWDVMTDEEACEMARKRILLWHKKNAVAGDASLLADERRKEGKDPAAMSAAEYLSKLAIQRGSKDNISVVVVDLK
Substitution,relative binding score [%]
T160D,-4.47
N61S,49.3
N177E,31

# Series 2
# Target: Fragile X messenger ribonucleoprotein 1, C-terminal low-complexity region (Fmr1, Mus musculus, UniProt P35922)
# Method: RNA Bind-n-Seq
# Form: RNA
# Matrix: in vitro
# Concentration: 200 nM
# Notes: whole 134-nt RNA, ends assumed
# Together with: 150 mM LiCl
# Reference: input library
# Direction: higher = stronger binding
# All molecules: 7-deaza-guanosine replaces G
Sequence,log2 enrichment
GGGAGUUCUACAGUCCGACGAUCUCCUGUGCUACACAUCGUAUGUACCGAAUCGGGGAGGGGAAAAAGGGGAAAAAAAGGGGAAAGUAUUAUGUUACGCCGUUCGGAUCUGCAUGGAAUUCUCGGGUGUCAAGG,0.37
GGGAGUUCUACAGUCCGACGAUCUGGAACAGCAGCUGCCACUCAGGCGUAAUUCCCACCUAGAGGAGAGUUUCACAUCCACCGAAGAAUCUUCCGAAGAAAAUGUCAACUUUUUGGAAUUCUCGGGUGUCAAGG,1.18
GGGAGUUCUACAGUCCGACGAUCCAAGUCCUGUGCUACACAUCGUAUGUACCGAAUCGGGUUUGGGAAAGGGUUUGGGAAAGUAUUAUGUUACGCCGUUCGGAUCUGCACUUCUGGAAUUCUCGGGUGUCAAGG,-1.71
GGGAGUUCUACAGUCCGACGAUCAAGUCCUGUGCUACACAUCGUAUGUACCGAAUCGGGGAAAGGGGAAAGGAAAGGGGAAAGUAUUAUGUUACGCCGUUCGGAUCUGCACUUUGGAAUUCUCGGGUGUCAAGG,0.135
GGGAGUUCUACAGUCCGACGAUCUCCUCAAGUCCUGUGCUACACAUCGUAUGUACCGAAUCGGCGGGCGGGCGGAAAGUAUUAUGUUACGCCGUUCGGAUCUGCACUUCCAGCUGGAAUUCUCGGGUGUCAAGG,0.819

# Series 3
# Target: RING finger protein unkempt homolog, zinc fingers 1-6, GST-SBP tag (UNK, Homo sapiens, UniProt Q9C0B0, residues 30-357)
# Sequence of UniProt Q9C0B0 (30-357, looked up): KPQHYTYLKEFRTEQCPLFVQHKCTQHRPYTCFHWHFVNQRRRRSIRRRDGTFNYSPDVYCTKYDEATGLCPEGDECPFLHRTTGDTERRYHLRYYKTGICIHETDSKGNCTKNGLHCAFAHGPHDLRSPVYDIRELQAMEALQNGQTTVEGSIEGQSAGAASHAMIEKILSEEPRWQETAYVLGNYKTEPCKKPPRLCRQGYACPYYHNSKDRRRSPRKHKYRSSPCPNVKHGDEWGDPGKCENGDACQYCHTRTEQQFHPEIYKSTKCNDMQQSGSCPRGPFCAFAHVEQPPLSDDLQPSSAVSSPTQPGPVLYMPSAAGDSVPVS
# Method: RNA Bind-n-Seq
# Form: RNA
# Matrix: in vitro
# Concentration: not given
# Notes: RNA with constant flanks, human-mouse chimeric sites, ends assumed
# Reference: input RNA pool
# Direction: higher = stronger binding
Sequence,bound/input enrichment
GGGAGUUCUACAGUCCGACGAUCUCAGGAACCCAGACAAACAUGAAUGUAAAUGAAGUCAUUAGCAAUAGAGCAAUUGAAAUGUUAGGAGGUGAACUUGGCAGCAAGAUACCUGUGCACCCCAAUGAUCAUGUUAACAAAAGCCAACAGAGGAUUGAGCAUCA,0.867 ratio
GGGAGUUCUACAGUCCGACGAUCAUGGAGAAGGAUUCUCUGCCCCGCUUUGUGCGCUCUGAGUUUUAUCAGGAGCUAAUCAAGUAGUCAUUUAGCCAGGCUUCCAAAAGUUGCCCUGUGAGUUGAGUUACAUCCUUUGUAGCACAACAGAGGAUUGAGCAUCA,1.09 ratio
GGGAGUUCUACAGUCCGACGAUCUCCCAAAUCCAGCAGCUCCUUGAAAUAUUGAGACAAACACUCCACACACAGGGAAGGCGAUAACAUUGUACAUUGGUUUACAUUUUUCUCCUUGAAUGAUUUUUCUAGAGGUCAUAGUGCCAACAGAGGAUUGAGCAUCA,0.372 ratio
GGGAGUUCUACAGUCCGACGAUCGUGACUGGUGUUAAGAUUUCCCCUCAGCAAAGAAGUGCAGUAGUCACCAUAAUUCCAUCUAUAGUGAGUGCCAGUCAGAUUGUGGAGCUGGUCCCAGACCUCAGUUUAGACAUGGGAACUCAACAGAGGAUUGAGCAUCA,1.03 ratio

# Further values, each from its own experiment
Molecule,target,test,system,setting,scale,endpoint,result
"PhoQ, residues 284 288 289 292 302 303 ASTSDA","PhoP, residues 12 14 15 18 19 NNFVT (Escherichia coli, UniProt P23836)","Sort-seq, measured: YFP reporter",E. coli,"PhoQ-PhoP variant library, together with: 10 µM Mg2+","reference: high Mg2+ state, higher = stronger signaling",fold induction,4.28
